# Measured values gathered from unrelated publications.
# Every numbered part comes from another study and shows a few of its results, in no order.
# Chain of UniProt Q8N5S9 (whole entry, looked up): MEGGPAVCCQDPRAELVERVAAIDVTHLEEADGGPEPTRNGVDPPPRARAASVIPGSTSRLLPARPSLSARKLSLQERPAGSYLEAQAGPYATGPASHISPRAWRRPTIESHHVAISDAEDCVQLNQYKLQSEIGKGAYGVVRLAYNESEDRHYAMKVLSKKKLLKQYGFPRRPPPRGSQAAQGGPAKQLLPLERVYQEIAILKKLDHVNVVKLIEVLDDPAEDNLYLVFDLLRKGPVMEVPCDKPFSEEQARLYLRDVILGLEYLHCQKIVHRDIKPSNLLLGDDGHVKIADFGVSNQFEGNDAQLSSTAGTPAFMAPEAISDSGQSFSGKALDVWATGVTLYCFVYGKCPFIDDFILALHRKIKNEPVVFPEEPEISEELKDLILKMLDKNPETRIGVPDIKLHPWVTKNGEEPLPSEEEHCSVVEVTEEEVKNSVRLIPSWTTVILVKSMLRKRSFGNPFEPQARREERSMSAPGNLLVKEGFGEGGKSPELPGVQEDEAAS
# Chain of UniProt O60674 (whole entry, looked up): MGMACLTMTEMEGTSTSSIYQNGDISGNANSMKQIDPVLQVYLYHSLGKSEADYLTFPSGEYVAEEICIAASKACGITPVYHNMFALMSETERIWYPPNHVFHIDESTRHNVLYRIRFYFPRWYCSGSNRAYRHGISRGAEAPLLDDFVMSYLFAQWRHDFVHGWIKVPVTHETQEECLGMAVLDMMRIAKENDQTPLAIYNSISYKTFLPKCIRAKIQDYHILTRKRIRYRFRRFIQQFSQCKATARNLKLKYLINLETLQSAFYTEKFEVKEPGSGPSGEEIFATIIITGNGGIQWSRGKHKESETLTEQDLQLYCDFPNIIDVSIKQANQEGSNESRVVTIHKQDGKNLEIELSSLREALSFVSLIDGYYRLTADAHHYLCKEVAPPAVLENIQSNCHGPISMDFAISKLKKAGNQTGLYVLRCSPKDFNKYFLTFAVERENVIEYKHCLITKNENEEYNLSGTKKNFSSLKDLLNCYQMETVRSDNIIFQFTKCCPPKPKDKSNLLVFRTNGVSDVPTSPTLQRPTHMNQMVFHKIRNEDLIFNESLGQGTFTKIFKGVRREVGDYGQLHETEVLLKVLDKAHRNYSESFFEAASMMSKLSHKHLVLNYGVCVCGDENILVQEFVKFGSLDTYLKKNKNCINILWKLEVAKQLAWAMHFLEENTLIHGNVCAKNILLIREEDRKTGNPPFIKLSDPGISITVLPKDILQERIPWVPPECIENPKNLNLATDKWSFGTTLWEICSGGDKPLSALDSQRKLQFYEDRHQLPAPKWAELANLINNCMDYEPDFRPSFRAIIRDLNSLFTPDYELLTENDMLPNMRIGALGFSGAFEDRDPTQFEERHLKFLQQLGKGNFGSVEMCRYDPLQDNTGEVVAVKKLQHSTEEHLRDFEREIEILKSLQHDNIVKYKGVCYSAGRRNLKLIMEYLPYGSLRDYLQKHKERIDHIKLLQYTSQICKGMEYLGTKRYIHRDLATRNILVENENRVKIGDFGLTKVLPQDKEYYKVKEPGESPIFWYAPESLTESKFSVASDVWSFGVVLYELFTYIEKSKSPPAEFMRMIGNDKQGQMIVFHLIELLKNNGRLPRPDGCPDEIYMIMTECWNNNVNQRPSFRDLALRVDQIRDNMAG
# Chain of UniProt P16591 (whole entry, looked up): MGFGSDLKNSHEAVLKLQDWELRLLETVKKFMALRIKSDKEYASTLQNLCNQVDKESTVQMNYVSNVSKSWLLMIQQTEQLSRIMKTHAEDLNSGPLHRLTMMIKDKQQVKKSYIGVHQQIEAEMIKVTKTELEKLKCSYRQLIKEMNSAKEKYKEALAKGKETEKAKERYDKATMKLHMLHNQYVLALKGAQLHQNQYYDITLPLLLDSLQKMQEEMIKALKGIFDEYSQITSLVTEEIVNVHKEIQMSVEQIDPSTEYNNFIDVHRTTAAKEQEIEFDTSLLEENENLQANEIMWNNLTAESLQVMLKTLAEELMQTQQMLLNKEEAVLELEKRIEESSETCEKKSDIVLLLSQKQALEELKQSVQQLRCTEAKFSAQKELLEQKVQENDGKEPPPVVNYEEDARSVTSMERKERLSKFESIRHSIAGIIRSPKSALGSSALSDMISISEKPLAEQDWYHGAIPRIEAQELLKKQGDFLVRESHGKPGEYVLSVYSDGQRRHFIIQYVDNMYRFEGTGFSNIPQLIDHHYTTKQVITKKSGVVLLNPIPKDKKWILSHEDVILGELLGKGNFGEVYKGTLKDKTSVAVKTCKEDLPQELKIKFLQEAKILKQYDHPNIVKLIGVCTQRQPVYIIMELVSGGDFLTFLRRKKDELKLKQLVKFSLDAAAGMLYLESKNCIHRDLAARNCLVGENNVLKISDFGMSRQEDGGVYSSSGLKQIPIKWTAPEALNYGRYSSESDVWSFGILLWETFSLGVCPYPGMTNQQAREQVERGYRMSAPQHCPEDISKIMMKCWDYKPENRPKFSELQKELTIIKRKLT
# Chain of UniProt Q96GD4 (whole entry, looked up): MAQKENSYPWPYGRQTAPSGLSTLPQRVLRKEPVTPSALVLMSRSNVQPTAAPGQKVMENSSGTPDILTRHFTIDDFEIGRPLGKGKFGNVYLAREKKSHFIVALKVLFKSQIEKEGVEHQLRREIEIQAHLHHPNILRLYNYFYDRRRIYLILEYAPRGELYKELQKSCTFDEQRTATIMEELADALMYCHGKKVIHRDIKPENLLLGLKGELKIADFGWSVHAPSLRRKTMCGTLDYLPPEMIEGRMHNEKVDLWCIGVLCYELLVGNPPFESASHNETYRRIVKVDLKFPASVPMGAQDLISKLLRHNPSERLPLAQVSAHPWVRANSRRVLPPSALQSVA
# Chain of UniProt O15146 (whole entry, looked up): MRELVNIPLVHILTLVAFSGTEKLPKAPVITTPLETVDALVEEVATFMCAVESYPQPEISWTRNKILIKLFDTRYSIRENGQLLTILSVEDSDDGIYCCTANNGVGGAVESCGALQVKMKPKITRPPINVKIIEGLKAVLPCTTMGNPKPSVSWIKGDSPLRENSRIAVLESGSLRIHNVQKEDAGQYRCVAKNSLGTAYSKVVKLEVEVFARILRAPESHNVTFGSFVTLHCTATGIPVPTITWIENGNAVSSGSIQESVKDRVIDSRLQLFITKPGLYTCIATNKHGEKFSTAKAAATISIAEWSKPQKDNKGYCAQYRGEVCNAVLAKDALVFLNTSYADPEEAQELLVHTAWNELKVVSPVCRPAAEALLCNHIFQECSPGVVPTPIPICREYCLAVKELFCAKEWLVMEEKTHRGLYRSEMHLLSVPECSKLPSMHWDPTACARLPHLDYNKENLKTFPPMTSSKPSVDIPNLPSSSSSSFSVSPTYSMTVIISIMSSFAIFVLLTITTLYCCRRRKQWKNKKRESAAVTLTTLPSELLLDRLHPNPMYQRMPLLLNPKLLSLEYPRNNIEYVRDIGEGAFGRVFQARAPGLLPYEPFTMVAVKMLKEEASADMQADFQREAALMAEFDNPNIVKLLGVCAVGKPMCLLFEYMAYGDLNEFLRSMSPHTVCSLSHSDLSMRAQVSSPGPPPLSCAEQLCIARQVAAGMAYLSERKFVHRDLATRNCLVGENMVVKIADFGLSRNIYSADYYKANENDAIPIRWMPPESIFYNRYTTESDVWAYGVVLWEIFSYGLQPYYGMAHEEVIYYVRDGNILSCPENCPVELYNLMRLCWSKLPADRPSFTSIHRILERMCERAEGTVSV
# Chain of UniProt O60331 (whole entry, looked up): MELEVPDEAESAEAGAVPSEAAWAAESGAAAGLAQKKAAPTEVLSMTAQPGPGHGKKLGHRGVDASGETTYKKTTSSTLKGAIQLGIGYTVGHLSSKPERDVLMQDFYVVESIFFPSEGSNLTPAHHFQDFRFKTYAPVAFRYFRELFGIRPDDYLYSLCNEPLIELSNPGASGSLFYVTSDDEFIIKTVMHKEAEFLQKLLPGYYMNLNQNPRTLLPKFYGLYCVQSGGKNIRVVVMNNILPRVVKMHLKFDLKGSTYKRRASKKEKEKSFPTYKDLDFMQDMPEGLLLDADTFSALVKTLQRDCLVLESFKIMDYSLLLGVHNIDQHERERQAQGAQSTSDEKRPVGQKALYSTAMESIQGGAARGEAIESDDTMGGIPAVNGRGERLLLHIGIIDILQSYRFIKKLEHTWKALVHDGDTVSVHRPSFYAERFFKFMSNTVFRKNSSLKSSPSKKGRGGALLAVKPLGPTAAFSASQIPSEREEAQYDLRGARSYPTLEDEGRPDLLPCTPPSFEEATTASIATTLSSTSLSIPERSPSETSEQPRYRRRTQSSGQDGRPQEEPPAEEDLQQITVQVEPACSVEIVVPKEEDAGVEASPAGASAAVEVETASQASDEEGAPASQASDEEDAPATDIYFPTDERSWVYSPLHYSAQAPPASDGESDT
# Chain of UniProt Q14012 (whole entry, looked up): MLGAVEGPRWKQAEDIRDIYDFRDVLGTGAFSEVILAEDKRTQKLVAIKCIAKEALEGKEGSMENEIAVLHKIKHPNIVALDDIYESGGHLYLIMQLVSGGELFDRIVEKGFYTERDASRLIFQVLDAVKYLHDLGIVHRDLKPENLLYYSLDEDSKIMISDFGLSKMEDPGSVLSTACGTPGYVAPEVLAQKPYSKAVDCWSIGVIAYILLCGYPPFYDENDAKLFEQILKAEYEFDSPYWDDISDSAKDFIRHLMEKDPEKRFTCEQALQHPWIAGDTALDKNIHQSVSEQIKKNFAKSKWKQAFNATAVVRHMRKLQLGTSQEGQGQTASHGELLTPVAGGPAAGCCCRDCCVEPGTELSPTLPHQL

# Series 1 — species: human; matrix: microsomes or S9; tested at: 2 µM; time: 0.5 h
Compound,remaining compound
CC(C)(NC(=O)C1CCC(NC(=O)C2CCCC2)CC1)c1noc(C(N)=O)n1 (centres unmarked),74.5%
Cc1ccc(Cl)c(OCC(O)Cn2cnc3cc(C)c(C)cc32)c1 (centres unmarked),6.47%
CC(C)(C)C(=O)c1sc2c(c1N)c(=O)[nH]c(=O)n2C1CCCCC1,> 100%
CC(C)(C)c1cc(NC(=O)Cn2nnn(-c3ccccc3)c2=O)on1,71.9%
CCc1cnc(N2CCN(C)C(C(=O)O)C2)nc1 (centres unmarked),> 99%
CNC(=O)C1CCCC1NC(=O)N1CCOC(C)(c2cnn(C)c2)C1 (centres unmarked),> 100%
Cc1cc(C(=O)Nc2cnn(Cc3ccc(Cl)cc3Cl)c2)c2c(C)nn(C)c2n1,23.5%
CCN(CC)S(=O)(=O)c1ccc(NC(=O)c2cc(OC)c(OC)c(OC)c2)cc1,> 100%

# Series 2 — Structure (SMILES): O=c1nc(-c2ccccn2)sc2ccccc12; technique: competition with immobilised ligand; tested at: 1 µM
target,observed,remaining binding [%]
"Epidermal growth factor receptor (EGFR, Homo sapiens, UniProt P00533, L861Q)",cell-free assay,68
"Protein kinase C delta type (PRKCD, Homo sapiens, UniProt Q05655)",cell-free assay,100
"Tyrosine-protein kinase Blk (BLK, Homo sapiens, UniProt P51451)",binding,88
"Dual specificity mitogen-activated protein kinase kinase 3 (MAP2K3, Homo sapiens, UniProt P46734)",binding,75
"Dual specificity protein kinase TTK (TTK, Homo sapiens, UniProt P33981)",binding,100
"Ribosomal protein S6 kinase alpha-1, C-terminal kinase domain (RPS6KA1, Homo sapiens, UniProt Q15418)",binding,100
"BDNF/NT-3 growth factors receptor (NTRK2, Homo sapiens, UniProt Q16620)",cell-free assay,96
"Dual specificity mitogen-activated protein kinase kinase 7 (MAP2K7, Homo sapiens, UniProt O14733)",binding,93
"Phosphatidylinositol 4-phosphate 3-kinase C2 domain-containing subunit beta (PIK3C2B, Homo sapiens, UniProt O00750)",cell-free assay,83
"Tyrosine-protein kinase Srms (SRMS, Homo sapiens, UniProt Q9H3Y6)",cell-free assay,87
"Serine/threonine-protein kinase ICK (CILK1, Homo sapiens, UniProt Q9UPZ9)",binding,83
"Phosphatidylinositol 4-phosphate 5-kinase type-1 gamma (PIP5K1C, Homo sapiens, UniProt O60331)",binding,84
"Dual specificity tyrosine-phosphorylation-regulated kinase 1A (DYRK1A, Homo sapiens, UniProt Q13627)",cell-free assay,91
"Tyrosine-protein kinase ABL1, phosphorylated (ABL1, Homo sapiens, UniProt P00519, T315I)",binding,100
"Tyrosine-protein kinase Fer (FER, Homo sapiens, UniProt P16591)",binding,94
"Serine/threonine-protein kinase N1 (PKN1, Homo sapiens, UniProt Q16512)",binding,77
"Tyrosine-protein kinase ABL1, phosphorylated (ABL1, Homo sapiens, UniProt P00519, H396P)",binding,99
"Mitogen-activated protein kinase kinase kinase 14 (MAP3K14, Homo sapiens, UniProt Q99558)",binding,100
"Aurora kinase B (AURKB, Homo sapiens, UniProt Q96GD4)",binding,82
"Ribosomal protein S6 kinase alpha-2, C-terminal kinase domain (RPS6KA2, Homo sapiens, UniProt Q15349)",binding,100
"RAC-alpha serine/threonine-protein kinase (AKT1, Homo sapiens, UniProt P31749)",binding,100
"Interleukin-1 receptor-associated kinase 1 (IRAK1, Homo sapiens, UniProt P51617)",binding,100
"Calcium/calmodulin-dependent protein kinase kinase 2 (CAMKK2, Homo sapiens, UniProt Q96RR4)",binding,90
"Serine/threonine-protein kinase TNNI3K (TNNI3K, Homo sapiens, UniProt Q59H18)",binding,87
"Cyclin-dependent kinase 2 (CDK2, Homo sapiens, UniProt P24941)",binding,96

# Series 3 — action: inhibitor
# SMILES: Cc1nc(Nc2ncc(C(=O)Nc3c(C)cccc3Cl)s2)cc(N2CCN(CCO)CC2)n1
target,tested at,inhibition [%]
"Calcium/calmodulin-dependent protein kinase kinase 1 (CAMKK1, Homo sapiens, UniProt Q8N5S9)",10 µM,< 50
"Serine/threonine-protein kinase DCLK2 (DCLK2, Homo sapiens, UniProt Q8N568)",10 µM,< 50
"Tyrosine-protein kinase JAK2 (JAK2, Homo sapiens, UniProt O60674)",10 µM,90
"Serine/threonine-protein kinase ULK3 (ULK3, Homo sapiens, UniProt Q6PHR2)",10 µM,< 50
"Rho-associated protein kinase 2 (ROCK2, Homo sapiens, UniProt O75116)",10 µM,< 50
"Cyclin-dependent kinase 17 (CDK17, Homo sapiens, UniProt Q00537)",10 µM,< 50
"Hepatocyte growth factor receptor (MET, Homo sapiens, UniProt P08581)",10 µM,< 50
"Activin receptor type-1B (ACVR1B, Homo sapiens, UniProt P36896)",1 µM,< 50
"Dual specificity mitogen-activated protein kinase kinase 1 (MAP2K1, Homo sapiens, UniProt Q02750)",10 µM,97
"Glycogen synthase kinase-3 beta (GSK3B, Homo sapiens, UniProt P49841)",1 µM,< 50
"Ephrin type-A receptor 1 (EPHA1, Homo sapiens, UniProt P21709)",10 µM,100
"RAF proto-oncogene serine/threonine-protein kinase (RAF1, Homo sapiens, UniProt P04049)",10 µM,93

# Series 4 — observed: enzyme activity; action: inhibitor; tested at: 0.5 µM; baseline: control
# SMILES: O=C1NC(=O)c2c1c1c3ccccc3[nH]c1c1[nH]c3cc(Br)ccc3c21
target,remaining activity [%]
"Ephrin type-A receptor 2 (EPHA2, Homo sapiens, UniProt P29317)",99.2
"Serine/threonine-protein kinase SIK2 (SIK2, Homo sapiens, UniProt Q9H0K1)",80.4
"SRSF protein kinase 1 (SRPK1, Homo sapiens, UniProt Q96SB4)",86.4
"Dual specificity protein kinase CLK1 (CLK1, Homo sapiens, UniProt P49759)",97
"Tyrosine-protein kinase Tec (TEC, Homo sapiens, UniProt P42680)",105
"Dual specificity protein kinase CLK2 (CLK2, Homo sapiens, UniProt P49760)",84.7
"Protein kinase C zeta type (PRKCZ, Homo sapiens, UniProt Q05513)",91.8
"Casein kinase I isoform delta (CSNK1D, Homo sapiens, UniProt P48730)",96.9
"Calcium/calmodulin-dependent protein kinase type 1 (CAMK1, Homo sapiens, UniProt Q14012)",99
"Serine/threonine-protein kinase PAK 6 (PAK6, Homo sapiens, UniProt Q9NQU5)",97.7
"Insulin-like growth factor 1 receptor (IGF1R, Homo sapiens, UniProt P08069)",15
"Ribosomal protein S6 kinase alpha-3 (RPS6KA3, Homo sapiens, UniProt P51812)",46.3
"Tyrosine-protein kinase receptor TYRO3 (TYRO3, Homo sapiens, UniProt Q06418)",89.7
"Serine/threonine-protein kinase PAK 1 (PAK1, Homo sapiens, UniProt Q13153)",87.8
"Vascular endothelial growth factor receptor 1 (FLT1, Homo sapiens, UniProt P17948)",56.5
"Calcium/calmodulin-dependent protein kinase kinase 1 (CAMKK1, Homo sapiens, UniProt Q8N5S9)",99.1
"Muscle, skeletal receptor tyrosine-protein kinase (MUSK, Homo sapiens, UniProt O15146)",88.5
"Mitogen-activated protein kinase kinase kinase 20 (MAP3K20, Homo sapiens, UniProt Q9NYL2)",88.8
"Protein kinase C theta type (PRKCQ, Homo sapiens, UniProt Q04759)",93.1
"Tyrosine-protein kinase JAK1 (JAK1, Homo sapiens, UniProt P23458)",110
"Casein kinase I isoform epsilon (CSNK1E, Homo sapiens, UniProt P49674)",82.2
"Serine/threonine-protein kinase Sgk2 (SGK2, Homo sapiens, UniProt Q9HBY8)",68.5
"Cyclin-dependent kinase 2, with cyclin E (CDK2, Homo sapiens, UniProt P24941)",74.9

# A few entries again (series 3):
target,tested at,inhibition [%]
"Dual specificity mitogen-activated protein kinase kinase 1 (MAP2K1, Homo sapiens, UniProt Q02750)",10 µM,97
"Rho-associated protein kinase 2 (ROCK2, Homo sapiens, UniProt O75116)",10 µM,< 50
"Calcium/calmodulin-dependent protein kinase kinase 1 (CAMKK1, Homo sapiens, UniProt Q8N5S9)",10 µM,< 50
"Activin receptor type-1B (ACVR1B, Homo sapiens, UniProt P36896)",1 µM,< 50
"Serine/threonine-protein kinase DCLK2 (DCLK2, Homo sapiens, UniProt Q8N568)",10 µM,< 50
"Ephrin type-A receptor 1 (EPHA1, Homo sapiens, UniProt P21709)",10 µM,100
"Cyclin-dependent kinase 17 (CDK17, Homo sapiens, UniProt Q00537)",10 µM,< 50
"Serine/threonine-protein kinase ULK3 (ULK3, Homo sapiens, UniProt Q6PHR2)",10 µM,< 50
"RAF proto-oncogene serine/threonine-protein kinase (RAF1, Homo sapiens, UniProt P04049)",10 µM,93
